# Measured values gathered from unrelated publications.
# Compare with care: the assays were run in different laboratories.
# Target: NAD-dependent protein deacetylase sirtuin-3, mitochondrial (SIRT3, Homo sapiens, UniProt Q9NTG7)
# One construct used (Q9NTG7 1-399): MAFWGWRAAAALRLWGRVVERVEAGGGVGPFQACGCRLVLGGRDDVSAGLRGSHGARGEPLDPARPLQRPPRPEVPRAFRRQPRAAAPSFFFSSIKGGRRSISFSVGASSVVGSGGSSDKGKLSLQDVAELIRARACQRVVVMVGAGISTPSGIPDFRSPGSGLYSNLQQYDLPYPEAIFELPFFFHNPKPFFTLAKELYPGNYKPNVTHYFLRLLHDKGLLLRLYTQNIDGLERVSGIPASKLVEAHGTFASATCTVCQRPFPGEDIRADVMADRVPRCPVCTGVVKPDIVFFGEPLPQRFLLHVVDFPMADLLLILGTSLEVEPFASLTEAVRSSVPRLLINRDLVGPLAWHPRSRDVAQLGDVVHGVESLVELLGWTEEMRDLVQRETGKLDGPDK
SMILES,test,setting,IC50 [µM]
CCCCCCCCCCCCCC(=S)NCCCC[C@H](NC(=O)CNC(=O)CN)C(=O)NCC(=O)O,,,> 50
CCCCCCCCCCCCNC(=S)NCCCC[C@H](NS(C)(=O)=O)C(=O)N[C@H](C)C(=O)N[C@@H](CCCNC(=N)N)C(N)=O,"enzyme activity, inhibitor",,35
COCCn1cc(COc2cccc(Cc3cnc(NC(=O)CSc4nc(C)cc(C)n4)s3)c2)nn1,"enzyme activity, inhibitor, fluorescence",,> 100
CCCCCCCCCCCCCC(=S)NCCCC[C@H](NS(C)(=O)=O)C(=O)N[C@@H](C)C(=O)N[C@@H](CCCNC(=N)N)C(N)=O,"enzyme activity, inhibitor",,2
CC[C@H](C)[C@H](NC(=O)[C@@H](NC(=O)[C@H](CCCCN)NC(=O)[C@H](CCCNC(=N)N)NC(=O)[C@H](CC(C)C)NC(=O)[C@H](CC(C)C)NC(=O)[C@H](CCCNC(=N)N)NC(=O)[C@H](CCCNC(=N)N)NC(=O)[C@H](CCSC)NC(=O)[C@@H](NC(=O)[C@H](CCCCNC(C)=S)NC(=O)CNC(=O)[C@H](CO)NC(=O)[C@H](CCCNC(=N)N)NC(=O)[C@@H](NC(=O)[C@H](CCCCN)NC(=O)[C@@H]1CCCN1C(=O)[C@H](CC(C)C)NC(=O)[C@H](CCCNC(=N)N)NC(=O)[C@@H](N)CCCCN)[C@@H](C)O)C(C)C)[C@@H](C)CC)C(=O)O,"enzyme activity, inhibitor, HPLC",,~5
O=C(NO)c1ccc(Cn2sc3ccccc3c2=O)cc1,"enzyme activity, inhibitor",,> 10
Cc1cc(C)nc(SCC(=O)Nc2ncc(Cc3cccc(OCc4cn(-c5ccc(Cl)cc5)nn4)c3)s2)n1,"enzyme activity, inhibitor, fluorescence",,> 100
COC(=O)[C@H](C)NC(=O)[C@H](C)NC(=O)[C@H](CCCCNC(C)=S)NC(=O)c1ccc(C(=O)c2ccc(OC/C=C/Cn3cc(COCCOCCOc4cccc5c4C(=O)N(C4CCC(=O)NC4=O)C5=O)nn3)cc2)cc1 (stereo partly drawn),"enzyme activity, inhibitor, HPLC",,38.2
C#CC[C@H](NC(=O)[C@H](Cc1ccccc1)NC(=O)[C@H](CCSC)NC(=O)[C@H](CC(C)C)NC(=O)[C@H](CCCCNC(C)=S)NC(=O)[C@H](CCCCN)NC(=O)[C@H](Cc1c[nH]cn1)NC(=O)[C@H](CCCNC(=N)N)NC(=O)CCC1(C)N=N1)C(N)=O,"enzyme activity, inhibitor",pH 7.5,4.6
Cc1cc(C)nc(SCC(=O)Nc2ncc(Cc3cccc4ccccc34)s2)n1,"enzyme activity, inhibitor, fluorescence",,> 100
CCCCCCCCCCCCCC(=S)NCCCC[C@H](NC(=O)[C@H](CCCNC(=N)N)NC(=O)[C@H](C)N)C(=O)N[C@@H](CO)C(=O)N[C@H](C(=O)O)[C@@H](C)O,,,5.6
CC(=S)NCCCC[C@H](NC(=O)[C@H](CCCNC(=N)N)NC(=O)[C@H](C)NC(=O)[C@@H](NC(=O)[C@H](CCC(N)=O)NC(=O)[C@@H](N)CCCCN)[C@@H](C)O)C(=O)N[C@@H](CO)C(=O)N[C@H](C(=O)NCC(=O)NCC(=O)N[C@@H](CCCCN)C(=O)N[C@@H](C)C(=O)O)[C@@H](C)O,"enzyme activity, inhibitor, HPLC",,1 to 2

# Repeated from above:
SMILES,test,setting,IC50 [µM]
Cc1cc(C)nc(SCC(=O)Nc2ncc(Cc3cccc(OCc4cn(-c5ccc(Cl)cc5)nn4)c3)s2)n1,"enzyme activity, inhibitor, fluorescence",,> 100
COC(=O)[C@H](C)NC(=O)[C@H](C)NC(=O)[C@H](CCCCNC(C)=S)NC(=O)c1ccc(C(=O)c2ccc(OC/C=C/Cn3cc(COCCOCCOc4cccc5c4C(=O)N(C4CCC(=O)NC4=O)C5=O)nn3)cc2)cc1 (stereo partly drawn),"enzyme activity, inhibitor, HPLC",,38.2
